Results from different studies.
A part holds a random share of what one study measured. Changes are numbered by the printed parent chain.

Study 1 — target: CCNE2, cyclin fold, Cln2 fusion (human); technique: yeast growth competition, sequencing; sample: yeast; notes: weak parent motif; reference: not given; direction: higher = stronger binding
Starting sequence: CDC6 docking peptide (human); TLKGRRLVFDNQL; partner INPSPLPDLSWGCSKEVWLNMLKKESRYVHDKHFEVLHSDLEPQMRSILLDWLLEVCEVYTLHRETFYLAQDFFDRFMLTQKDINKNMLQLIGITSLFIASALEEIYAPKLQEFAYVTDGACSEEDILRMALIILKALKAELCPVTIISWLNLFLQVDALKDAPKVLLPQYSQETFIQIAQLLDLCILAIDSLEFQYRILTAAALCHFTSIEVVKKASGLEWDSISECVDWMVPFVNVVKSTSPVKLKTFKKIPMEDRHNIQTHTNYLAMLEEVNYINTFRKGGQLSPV
| Substitution | normalised enrichment score |
| --- | --- |
| TLKGTRLVFDNQL [R5T] | 1.23 |
| TLKGKRLVLDNQL [R5K F9L] | 0.285 |
| TLKGVRLVFDNQL [R5V] | 0.865 |
| TLKGRRHVFDNQL [L7H] | 0.172 |
| TLFGRRLVFDNQL [K3F] | 0.0291 |
| TLSGRRLVFDNQL [K3S] | 0.358 |
| TLKGRRLGFDNQL [V8G] | 0.96 |
| TLKGRRLVFDNKL [Q12K] | 0.299 |
| TLKGRRLCFDNQL [V8C] | 1 |
| TLKYRRLVFDNQL [G4Y] | -0.348 |

Study 2 — technique: protein-binding microarray; form: double-stranded DNA, one strand shown; sample: in vitro; concentration: 0.8 µM; notes: whole 60-bp probe, no competitor; direction: higher = stronger binding; shared flanks, not repeated: … GTCTTGATTCGCTTGACGCTGCTG
Target: Centromere-binding protein 1, full length, N-terminal tag (CBF1, Saccharomyces cerevisiae, UniProt P17106, residues 1-351)
Chain of UniProt P17106 (whole entry, looked up): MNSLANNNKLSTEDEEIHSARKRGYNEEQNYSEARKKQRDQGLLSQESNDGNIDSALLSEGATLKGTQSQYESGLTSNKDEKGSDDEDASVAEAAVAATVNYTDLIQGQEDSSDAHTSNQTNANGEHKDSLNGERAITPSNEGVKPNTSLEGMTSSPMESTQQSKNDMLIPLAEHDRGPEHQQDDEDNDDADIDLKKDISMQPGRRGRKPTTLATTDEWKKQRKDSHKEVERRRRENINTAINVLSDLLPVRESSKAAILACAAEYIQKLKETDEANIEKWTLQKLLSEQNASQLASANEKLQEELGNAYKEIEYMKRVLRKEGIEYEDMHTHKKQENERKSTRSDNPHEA
| Strand | fluorescence intensity [a.u.] |
| --- | --- |
| CTAATCGAACTTTATCACCCGCAGCATAAAGTATTC | 524 |
| CTATACTTAATGCTTATCGTGATCGCAATACAATTC | 650 |
| GAAGAGACCGCAAAACACGTGTACGCACGTAGCTAG | 5560 |
| CTATATTTATGATAGCATCAGATTCATTTCCCATTC | 490 |
| CTATTATGAGACTATATCATGACCATACCTTATTTC | 498 |
| CTAGCCCATTAATACCGGGTGACATAGTCCCACTTC | 475 |
| GAATTACTGTTGCATCATGTATAGGAGCTGCCCTAG | 545 |
| CTACAGGATAAATCCAGTGTGACCCGGACTGAATTC | 532 |
| CTACAGCTTTAGACTCACATGGGTTCTCATGAGTTC | 634 |

Study 3 — technique: protein binding microarray; form: double-stranded DNA, one strand shown; sample: in vitro; concentration: not given; reference: not given; direction: higher = stronger binding
Target: Histone acetyltransferase KAT6A, winged helix 1, GST fusion (KAT6A, Homo sapiens, UniProt Q92794, residues 1-85)
Notes: 8-mer, flanks averaged, mean of 2 arrays, mostly near background
Target sequence (chain): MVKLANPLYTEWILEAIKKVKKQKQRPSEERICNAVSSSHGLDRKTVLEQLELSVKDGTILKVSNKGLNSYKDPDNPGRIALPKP
| Strand | E-score |
| --- | --- |
| ATCGGCGC | 0.366 |
| GTAGTAGA | 0.011 |
| AAAGGCGC | 0.256 |
| CTCCGGAA | 0.0319 |
| TAGCCCGA | 0.052 |
| AATGCGGC | 0.329 |
| AGTCCGCA | 0.175 |

Further values, each from its own experiment
| Substance | target | assay | test system | setting | how to read | endpoint | value |
| --- | --- | --- | --- | --- | --- | --- | --- |
| PhoQ, residues 284 288 289 292 302 303 NLGVHL | PhoP, residues 12 14 15 18 19 NYFTV (Escherichia coli, UniProt P23836) | Sort-seq, refers to: YFP reporter | E. coli | PhoQ-PhoP variant library, with: 10 µM Mg2+ | reference: high Mg2+ state, higher = stronger signaling | fold induction | 4.59 |
